Experimental data of several laboratories.
Compare with care: the assays were run in different laboratories. Values joined by “and” are separate records of one study, mostly repeats; a detail may differ. Numbers after ± are the reported error.
MSP: Male-specific submandibular salivary gland protein (MSP, Mesocricetus auratus, UniProt Q9QXU1)
Sequence of UniProt Q9QXU1 (whole entry, looked up): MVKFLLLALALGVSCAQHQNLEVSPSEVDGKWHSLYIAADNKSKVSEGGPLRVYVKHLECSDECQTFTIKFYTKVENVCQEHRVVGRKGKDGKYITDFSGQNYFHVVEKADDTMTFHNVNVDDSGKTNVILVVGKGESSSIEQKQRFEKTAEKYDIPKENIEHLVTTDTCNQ
APEX1: DNA repair nuclease/redox regulator APEX1 (APEX1, Homo sapiens, UniProt P27695)
Sequence of UniProt P27695 (whole entry, looked up): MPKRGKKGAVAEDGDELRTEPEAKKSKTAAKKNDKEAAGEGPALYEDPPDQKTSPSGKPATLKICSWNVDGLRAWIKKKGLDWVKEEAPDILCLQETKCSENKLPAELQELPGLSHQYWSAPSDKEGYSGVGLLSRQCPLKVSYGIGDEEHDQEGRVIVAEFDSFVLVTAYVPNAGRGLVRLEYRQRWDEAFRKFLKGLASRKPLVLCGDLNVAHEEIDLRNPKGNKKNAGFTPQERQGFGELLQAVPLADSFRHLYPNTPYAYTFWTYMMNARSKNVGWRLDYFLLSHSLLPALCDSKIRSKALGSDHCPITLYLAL
HRH1: Histamine H1 receptor (HRH1, Homo sapiens, UniProt P35367)
Sequence of UniProt P35367 (whole entry, looked up): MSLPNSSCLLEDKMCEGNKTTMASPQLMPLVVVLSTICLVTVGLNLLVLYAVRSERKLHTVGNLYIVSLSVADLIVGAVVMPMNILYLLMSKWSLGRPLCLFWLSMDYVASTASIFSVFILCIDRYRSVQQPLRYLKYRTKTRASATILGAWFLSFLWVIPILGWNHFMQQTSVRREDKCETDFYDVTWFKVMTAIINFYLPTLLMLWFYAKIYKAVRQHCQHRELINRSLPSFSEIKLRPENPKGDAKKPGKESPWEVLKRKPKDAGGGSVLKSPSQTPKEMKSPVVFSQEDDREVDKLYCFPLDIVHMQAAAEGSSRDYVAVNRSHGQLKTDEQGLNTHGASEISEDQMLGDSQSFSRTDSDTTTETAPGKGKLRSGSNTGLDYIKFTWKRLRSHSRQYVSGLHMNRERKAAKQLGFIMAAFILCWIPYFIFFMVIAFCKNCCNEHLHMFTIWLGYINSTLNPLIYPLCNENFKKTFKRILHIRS
P2RY1: P2Y purinoceptor 1 (P2RY1, Homo sapiens, UniProt P47900)
Sequence of UniProt P47900 (whole entry, looked up): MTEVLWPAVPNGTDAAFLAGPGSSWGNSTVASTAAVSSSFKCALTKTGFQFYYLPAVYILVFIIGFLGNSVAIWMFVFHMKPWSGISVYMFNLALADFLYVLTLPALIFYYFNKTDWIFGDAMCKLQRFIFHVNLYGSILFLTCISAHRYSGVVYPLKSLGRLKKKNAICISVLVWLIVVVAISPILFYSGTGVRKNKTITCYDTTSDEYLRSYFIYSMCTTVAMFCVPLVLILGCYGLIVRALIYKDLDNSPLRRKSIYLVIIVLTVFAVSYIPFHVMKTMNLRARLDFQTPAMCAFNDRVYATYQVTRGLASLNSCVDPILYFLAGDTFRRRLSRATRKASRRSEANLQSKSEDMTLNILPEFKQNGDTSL
Na(+)/H(+) exchange regulatory cofactor NHE-RF2 PDZ domain 2: Na(+)/H(+) exchange regulatory cofactor NHE-RF2, PDZ domain 2 (Homo sapiens, UniProt Q15599)
Sequence of UniProt Q15599 (whole entry, looked up): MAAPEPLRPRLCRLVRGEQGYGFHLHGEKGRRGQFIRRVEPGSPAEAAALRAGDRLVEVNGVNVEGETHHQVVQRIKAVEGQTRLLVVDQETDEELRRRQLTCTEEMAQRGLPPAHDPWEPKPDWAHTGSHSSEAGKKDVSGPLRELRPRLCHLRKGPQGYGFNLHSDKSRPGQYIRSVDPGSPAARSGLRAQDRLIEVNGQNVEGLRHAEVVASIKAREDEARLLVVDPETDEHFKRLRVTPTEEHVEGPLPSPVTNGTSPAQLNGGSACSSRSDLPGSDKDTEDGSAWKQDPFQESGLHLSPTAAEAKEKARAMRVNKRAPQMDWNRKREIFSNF
Drd3: D(3) dopamine receptor (Drd3, Rattus norvegicus, UniProt P19020)
Sequence of UniProt P19020 (whole entry, looked up): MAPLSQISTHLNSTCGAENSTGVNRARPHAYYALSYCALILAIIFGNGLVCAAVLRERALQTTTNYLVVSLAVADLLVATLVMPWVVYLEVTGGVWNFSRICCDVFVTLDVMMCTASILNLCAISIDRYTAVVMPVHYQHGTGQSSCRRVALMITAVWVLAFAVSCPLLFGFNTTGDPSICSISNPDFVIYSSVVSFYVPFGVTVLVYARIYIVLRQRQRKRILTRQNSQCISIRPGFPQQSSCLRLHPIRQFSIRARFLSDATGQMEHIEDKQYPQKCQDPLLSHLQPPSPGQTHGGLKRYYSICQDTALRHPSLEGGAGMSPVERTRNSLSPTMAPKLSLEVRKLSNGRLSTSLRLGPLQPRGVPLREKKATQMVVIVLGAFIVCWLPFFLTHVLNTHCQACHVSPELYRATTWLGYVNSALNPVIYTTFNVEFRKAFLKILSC
DXR: 1-deoxy-D-xylulose 5-phosphate reductoisomerase, apicoplastic (DXR, Plasmodium falciparum, UniProt O96693)
Sequence of UniProt O96693 (whole entry, looked up): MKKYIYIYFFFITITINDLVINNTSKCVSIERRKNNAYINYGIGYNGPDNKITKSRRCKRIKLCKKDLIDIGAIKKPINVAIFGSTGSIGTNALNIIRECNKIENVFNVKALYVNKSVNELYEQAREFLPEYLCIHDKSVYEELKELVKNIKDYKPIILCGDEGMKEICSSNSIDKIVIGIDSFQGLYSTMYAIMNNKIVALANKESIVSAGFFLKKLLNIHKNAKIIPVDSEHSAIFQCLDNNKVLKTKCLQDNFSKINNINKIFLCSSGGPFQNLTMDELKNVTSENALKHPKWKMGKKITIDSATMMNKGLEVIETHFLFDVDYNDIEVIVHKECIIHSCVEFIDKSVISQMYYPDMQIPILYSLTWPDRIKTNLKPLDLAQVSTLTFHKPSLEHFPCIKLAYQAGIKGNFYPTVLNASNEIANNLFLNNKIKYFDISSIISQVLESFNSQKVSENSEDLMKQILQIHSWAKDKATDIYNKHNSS
Cnr1: Cannabinoid receptor 1 (Cnr1, Rattus norvegicus, UniProt P20272)
Sequence of UniProt P20272 (whole entry, looked up): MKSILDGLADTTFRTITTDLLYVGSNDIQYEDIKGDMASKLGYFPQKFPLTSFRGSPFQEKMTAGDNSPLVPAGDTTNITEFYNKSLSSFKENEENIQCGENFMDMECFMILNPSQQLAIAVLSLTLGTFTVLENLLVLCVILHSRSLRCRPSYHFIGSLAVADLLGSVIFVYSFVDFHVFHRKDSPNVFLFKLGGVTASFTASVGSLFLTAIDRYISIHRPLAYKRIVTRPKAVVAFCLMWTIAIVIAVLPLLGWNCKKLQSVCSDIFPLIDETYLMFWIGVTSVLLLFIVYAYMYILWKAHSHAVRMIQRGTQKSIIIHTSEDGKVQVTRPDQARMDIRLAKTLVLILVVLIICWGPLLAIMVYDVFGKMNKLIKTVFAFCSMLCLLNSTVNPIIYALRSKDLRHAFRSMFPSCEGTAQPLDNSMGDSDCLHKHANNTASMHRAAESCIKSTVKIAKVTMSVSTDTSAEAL
FPR1: fMet-Leu-Phe receptor (FPR1, Homo sapiens, UniProt P21462)
Sequence of UniProt P20813 (whole entry, unmodified, looked up): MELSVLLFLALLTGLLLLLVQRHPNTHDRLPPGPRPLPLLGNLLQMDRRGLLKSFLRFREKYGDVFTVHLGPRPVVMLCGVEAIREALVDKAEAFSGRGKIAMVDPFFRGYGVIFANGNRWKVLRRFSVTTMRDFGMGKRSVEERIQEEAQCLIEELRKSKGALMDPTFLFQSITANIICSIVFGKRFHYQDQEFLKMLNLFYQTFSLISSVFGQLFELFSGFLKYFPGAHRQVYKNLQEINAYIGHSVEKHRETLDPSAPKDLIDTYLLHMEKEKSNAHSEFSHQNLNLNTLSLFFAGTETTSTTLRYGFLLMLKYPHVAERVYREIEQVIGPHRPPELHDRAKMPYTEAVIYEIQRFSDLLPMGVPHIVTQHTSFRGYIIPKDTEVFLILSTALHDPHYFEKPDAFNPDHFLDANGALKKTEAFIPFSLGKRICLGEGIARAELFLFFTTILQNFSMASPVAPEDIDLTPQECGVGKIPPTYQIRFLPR
Sequence of UniProt P21462 (whole entry, looked up): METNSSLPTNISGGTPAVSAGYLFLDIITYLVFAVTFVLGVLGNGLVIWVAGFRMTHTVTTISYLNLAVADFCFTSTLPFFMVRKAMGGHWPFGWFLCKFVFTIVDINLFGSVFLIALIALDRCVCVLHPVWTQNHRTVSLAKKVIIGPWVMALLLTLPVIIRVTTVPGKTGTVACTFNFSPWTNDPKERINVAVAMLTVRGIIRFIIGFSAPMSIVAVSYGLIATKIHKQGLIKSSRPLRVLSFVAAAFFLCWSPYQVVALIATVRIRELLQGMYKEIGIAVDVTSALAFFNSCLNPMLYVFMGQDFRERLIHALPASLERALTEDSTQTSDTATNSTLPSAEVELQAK
Sequence of UniProt P05067 (whole entry, looked up): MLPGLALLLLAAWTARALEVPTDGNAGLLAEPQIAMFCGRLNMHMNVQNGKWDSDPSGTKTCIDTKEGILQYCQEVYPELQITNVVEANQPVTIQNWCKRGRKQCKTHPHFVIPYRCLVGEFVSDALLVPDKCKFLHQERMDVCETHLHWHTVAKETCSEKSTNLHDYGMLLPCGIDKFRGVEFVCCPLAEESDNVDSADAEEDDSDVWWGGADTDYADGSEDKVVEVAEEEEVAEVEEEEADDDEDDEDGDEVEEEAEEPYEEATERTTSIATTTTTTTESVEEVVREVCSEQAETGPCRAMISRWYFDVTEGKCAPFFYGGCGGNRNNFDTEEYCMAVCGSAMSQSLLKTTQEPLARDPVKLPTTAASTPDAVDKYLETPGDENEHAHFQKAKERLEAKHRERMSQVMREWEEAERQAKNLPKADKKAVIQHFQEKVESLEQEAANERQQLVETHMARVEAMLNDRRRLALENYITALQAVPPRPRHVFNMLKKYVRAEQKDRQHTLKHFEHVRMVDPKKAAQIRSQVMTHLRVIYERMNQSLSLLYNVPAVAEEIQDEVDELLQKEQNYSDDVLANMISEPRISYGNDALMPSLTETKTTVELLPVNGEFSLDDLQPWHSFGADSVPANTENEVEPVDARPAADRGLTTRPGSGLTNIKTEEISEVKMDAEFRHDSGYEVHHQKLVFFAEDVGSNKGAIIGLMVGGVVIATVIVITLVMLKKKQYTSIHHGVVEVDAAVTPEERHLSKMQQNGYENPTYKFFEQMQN

SMILES = CCC[C@H](N)C(=O)O; target = DDAH1 (Homo sapiens, UniProt O94760); assay = enzyme activity, inhibitor, citrulline detection; setting = together with: ADMA; Ki = 470 ± 20 µM
SMILES = CC(C)CCCC(C)CCO (stereo not shown); target = MSP; assay = binding, fluorescence displacement; setting = together with: 1-AMA 2 µM; Ki = 0.17 µM
SMILES = Cc1cc(N/N=C/c2ccc([N+](=O)[O-])o2)c2cc3c(cc2n1)OCO3; target = APEX1; assay = enzyme activity, inhibitor; Ki = 0.64 µM
SMILES = Cc1nc(N)sc1CCCNC(=N)NCCCCCCCCCCCCNC(=N)N; target = HRH1; assay = ligand displacement, radioligand; setting = cell membranes; Ki = 0.562 µM
SMILES = CCn1c2ccccc2c2cc(/C=N/Nc3cc(C)nc4cc5c(cc34)OCO5)ccc21; target = APEX1; assay = enzyme activity, inhibitor; Ki = 0.12 µM
SMILES = COc1nccnc1CC(C)C; target = MSP; assay = binding, fluorescence displacement; setting = together with: 1-AMA 2 µM; Ki = 0.22 µM
SMILES = CNc1nc(C#CCCCCC(=O)NCCN)nc2c1ncn2[C@H]1C[C@H](OP(=O)(O)O)[C@]2(COP(=O)(O)O)C[C@H]12; target = P2RY1; assay = ligand displacement, radioligand; setting = cell membranes; Ki = 3.96 µM
SMILES = N=C(N)NCCCCCCCCNC(=N)NCCCc1cnc(N)s1; target = HRH1; assay = ligand displacement, radioligand; setting = cell membranes; Ki = 0.263 µM
SMILES = CC(C)[C@H](NC(=O)[C@@H](NC(=O)[C@@H](NC(=O)[C@H](CO)NC(=O)[C@H](Cc1ccccc1)NC(=O)[C@@H](N)CC(=O)O)[C@@H](C)O)[C@@H](C)O)C(=O)O; target = Na(+)/H(+) exchange regulatory cofactor NHE-RF2 PDZ domain 2; assay = fluorescence polarization competition; setting = together with: FITC-labelled LPA2 peptide tracer; Ki = 54.8 ± 3 µM
SMILES = O=C(O)C(CCO)[C@@H]1CCN[C@H]1C(=O)O (relative stereo); target = NMDA receptor, rat; assay = binding; test system = cortical synaptosomes; setting = together with: [3H]-CGP 39653; Ki = 61 µM
SMILES = CNc1nc(C#CCCCC(=O)O)nc2c1ncn2[C@H]1C[C@H](OP(=O)(O)O)[C@]2(COP(=O)(O)O)C[C@H]12; target = P2RY1; assay = ligand displacement, radioligand; setting = cell membranes; Ki = 0.376 µM
SMILES = CCCN(CCC1(O)CC(NC(=O)c2ccccc2)C1)[C@H]1CCc2nc(N)sc2C1 (stereo in doubt); target = Drd3; assay = ligand displacement, radioligand; setting = cell membranes; Ki = 0.00074 µM
SMILES = O=C(CCCc1ccccc1)N(O)CCCP(=O)(O)O; target = DXR; assay = inhibitor, Lineweaver-Burk plot; setting = together with: DXP varied, NADPH 150 µM; Ki = 0.47 µM
SMILES = CCCCCCC=O; target = MSP; assay = binding, fluorescence displacement; setting = together with: 1-AMA 2 µM; Ki = 3.96 µM
SMILES = O=C(Cc1cccs1)N[C@@H](Cn1cc(-c2nn[nH]n2)nn1)B(O)O; target = Beta-lactamase ADC-7 (Acinetobacter baumannii, UniProt Q6DRA1); assay = inhibitor; setting = 5 min preincubation, pH 7.4, room temperature, together with: nitrocefin; Ki = 0.076 ± 0.002 µM
SMILES = CCCN(CCC1(O)CC(NC(=O)c2ccc(F)c(Cl)c2)C1)[C@H]1CCc2nc(N)sc2C1 (stereo in doubt); target = Drd3; assay = ligand displacement, radioligand; setting = cell membranes; Ki = 0.00043 µM
SMILES = Cc1c(/N=N/c2cccc(Cl)c2Cl)nn(-c2ccc(Cl)cc2Cl)c1-c1ccc(Cl)cc1; target = Cnr1; assay = radioligand binding; test system = rat brain membranes; setting = trans isomer, 454 nm light, together with: [3H]CP55940 0.6 nM; Ki = 0.521 ± 0.2 µM
SMILES = CC(C)[C@H](NC(=O)[C@H](CCCNC(=N)N)NC(=O)[C@@H](NC(=O)[C@H](CO)NC(=O)[C@H](Cc1ccccc1)NC(=O)[C@@H](N)CC(=O)O)[C@@H](C)O)C(=O)O; target = Na(+)/H(+) exchange regulatory cofactor NHE-RF2 PDZ domain 2; assay = fluorescence polarization competition; setting = together with: FITC-labelled LPA2 peptide tracer; Ki = 52.1 ± 5.3 µM
SMILES = CCCN(CC[C@]1(O)C[C@@H](NS(=O)(=O)c2ccccc2Cl)C1)[C@H]1CCc2nc(N)sc2C1 (relative stereo); target = Drd3; assay = ligand displacement, radioligand; setting = cell membranes; Ki = 0.00059 µM
SMILES = Cc1ccccc1/N=N/c1c(C)c(C(=O)NN2CCCCC2)nn1-c1ccc(Cl)cc1Cl; target = Cnr1; assay = radioligand binding; test system = rat brain membranes; setting = trans isomer, 454 nm light, together with: [3H]CP55940 0.6 nM; Ki = 0.294 ± 0.066 µM
SMILES = CC(C)[C@H](NC(=O)[C@H](Cc1c[nH]c2ccccc12)NC(=O)[C@@H](NC(=O)[C@H](CCC(=O)O)NC(=O)[C@H](Cc1ccccc1)NC(=O)[C@@H](N)CC(=O)O)[C@@H](C)O)C(=O)O; target = Na(+)/H(+) exchange regulatory cofactor NHE-RF2 PDZ domain 2; assay = fluorescence polarization competition; setting = together with: FITC-labelled LPA2 peptide tracer; Ki = 5.4 ± 1.2 µM
SMILES = N=C(NCCCCCCCCCCN)NCCCc1c[nH]cn1; target = HRH1; assay = ligand displacement, radioligand; setting = cell membranes; Ki = 0.871 µM
SMILES = CNc1nc(C#CCCCc2cn(CCNC(C)=O)nn2)nc2c1ncn2[C@H]1C[C@H](OP(=O)(O)O)[C@]2(COP(=O)(O)O)C[C@H]12; target = P2RY1; assay = ligand displacement, radioligand; setting = cell membranes; Ki = 2.7 µM
SMILES = NC(=O)C1=CN([C@@H]2O[C@H](COP(=O)(O)OP(=O)(O)OC[C@H]3O[C@@H](n4cnc5c(N)ncnc54)[C@H](O)[C@@H]3O)[C@@H](O)[C@H]2O)C=CC1; target = Homoisocitrate dehydrogenase, mitochondrial (Saccharomyces cerevisiae S288c, UniProt P40495); assay = enzyme activity, inhibitor; Ki = ~2700 µM
SMILES = CCCCCCCCOC(=O)NS(=O)(=O)Nc1ccc(-c2cc3ccccc3[nH]2)cc1OC; target = Polyunsaturated fatty acid lipoxygenase ALOX15 (Oryctolagus cuniculus, UniProt P12530); assay = arachidonic acid oxygenation, inhibitor; setting = together with: arachidonic acid; Ki = 14.6 ± 3.14 µM
SMILES = Cc1nc(N)sc1CCCNC(=N)NCCCCCCCCCCCCN; target = HRH1; assay = ligand displacement, radioligand; setting = cell membranes; Ki = 0.501 µM
SMILES = Nc1ccc(-c2ccc3cc(OCCOCCN4CCSC4=O)ccc3n2)cc1; target = Amyloid-beta precursor protein, amyloid-beta plaques (APP, Homo sapiens, UniProt P05067); assay = radioligand competition binding; test system = AD brain homogenate; setting = 2 h, 37 °C, together with: [3H]PIB; Ki = > 1 µM
SMILES = CCCCCCN1C(=O)C(O)=C(C(=O)c2ccccc2)C1c1ccc(O)c(OC)c1 (stereo not shown); target = FPR1; assay = ligand displacement in cells; Ki = 3 µM
SMILES = N=C(NCCCCCCCCCCCCN)NCCCc1cnc(N)s1; target = HRH1; assay = ligand displacement, radioligand; setting = cell membranes; Ki = 0.302 µM
SMILES = CCCN(CCC1(O)CC(NC(=O)c2ccc(Cl)cc2)C1)[C@H]1CCc2nc(N)sc2C1 (stereo in doubt); target = dopamine D1-like receptor, rat; assay = radioligand binding; test system = rat striatal membranes; setting = together with: [3H]SCH23390; Ki = 15.1 ± 0.78 µM
SMILES = CC(=O)N(C/C=C/P(=O)(O)O)OCc1ccc(-c2ccccc2)cc1; target = DXR; assay = inhibitor; setting = versus NADPH, together with: NADPH varied 6-30 µM, DXP 144 µM; Ki = 3.15 µM
SMILES = CC[C@H](C(=O)O)[C@H]1CCN[C@@H]1C(=O)O; target = NMDA receptor, rat; assay = binding; test system = cortical synaptosomes; setting = together with: [3H]-CGP 39653; Ki = 13 µM
SMILES = COc1cc(-c2nc3ccccc3[nH]2)ccc1OCc1cn(CC(=O)Nc2cnc(-c3ccccc3)s2)nn1; target = α-glucosidase; assay = inhibitor, Lineweaver-Burk secondary plot; Ki = 6.3 µM
SMILES = CC(C)=CCC/C(C)=C/CO; target = MSP; assay = binding, fluorescence displacement; setting = together with: 1-AMA 2 µM; Ki = 0.63 µM
SMILES = CCCN(CCC1(O)CC(NS(=O)(=O)c2ccccc2F)C1)[C@H]1CCc2nc(N)sc2C1 (stereo in doubt); target = dopamine D1-like receptor, rat; assay = radioligand binding; test system = rat striatal membranes; setting = together with: [3H]SCH23390; Ki = 109 ± 2.5 µM
SMILES = CCOC(=O)C1=CC(C)(C(=O)c2ccccc2)CCC1=O (stereo not shown); target = MAPK14 (Homo sapiens, UniProt Q16539); assay = ligand displacement, FP; Ki = 10.9 µM
SMILES = CCCN(CCN1CCN(c2ccc(-c3ccncc3)cc2)CC1)C1CCc2ccc(O)cc2C1 (single isomer, unassigned; (+)); target = Drd3; assay = ligand displacement, radioligand; setting = cell membranes; Ki = 0.00078 µM
SMILES = CCCN(CCC1(O)CC(NC(=O)c2ccc(OC)cc2)C1)[C@H]1CCc2nc(N)sc2C1 (stereo in doubt); target = Drd3; assay = ligand displacement, radioligand; setting = cell membranes; Ki = 0.0007 µM
SMILES = Cc1c(C(=O)NCc2ccc(/N=N/c3ccc4c(c3)COC4)cc2)nn(-c2ccc(Cl)cc2Cl)c1-c1ccc(Cl)cc1; target = Cnr1; assay = radioligand binding; test system = rat brain membranes; setting = trans isomer, 454 nm light, together with: [3H]CP55940 0.6 nM; Ki = 0.602 ± 0.416 µM
SMILES = N=C(NCCCCCCCCCCNC(N)=O)NCCCc1c[nH]cn1; target = HRH1; assay = ligand displacement, radioligand; setting = cell membranes; Ki = > 3.16 µM
SMILES = N=C(N)NCCC[C@H](NC(=O)[C@@H](N)Cc1ccccc1)C(=O)NCCOCCOCC(=O)NCC(=O)N1CCCC[C@H]1C(N)=O; target = FAP (Homo sapiens, UniProt Q12884); assay = enzyme activity, inhibitor, fluorescence; setting = pH 7.5; Ki = > 1000 µM
SMILES = CCC(C)n1ncn(-c2ccc(N3CCN(c4ccc(OCC5COC(Cn6cncn6)(c6ccc(Cl)cc6Cl)O5)cc4)CC3)cc2)c1=O (stereo not shown); target = Cytochrome P450 2B6 (CYP2B6, Homo sapiens, UniProt P20813, K262R); assay = competitive inhibitor, reconstituted P450 system; setting = 5 min, pH 7.4, together with: 7-MFC substrate; Ki = 4.4 µM and 4.34 µM and 3.84 µM
SMILES = CCCCCCN1C(=O)C(O)=C(C(=O)c2ccc(C)cc2)C1c1ccc(OC)cc1OC (stereo not shown); target = FPR1; assay = ligand displacement in cells; Ki = < 2 µM
SMILES = CCCN(CCC1(O)CC(NC(=O)c2ccccc2OC)C1)[C@H]1CCc2nc(N)sc2C1 (stereo in doubt); target = dopamine D1-like receptor, rat; assay = radioligand binding; test system = rat striatal membranes; setting = together with: [3H]SCH23390; Ki = 43.5 ± 0.711 µM
SMILES = CCC[C@H]1c2ccccc2C=NN1C(=O)/C=C/c1cc(Cc2cnc(N)nc2N)cc(OC)c1OC (racemic); target = Dihydrofolate reductase (Enterococcus faecalis, UniProt Q834R2); assay = enzyme activity, inhibitor; setting = together with: dihydrofolate (Km 10.9 µM); Ki = 0.0045 µM
SMILES = O=C(O)[C@H]1NCC[C@@H]1[C@@H](C(=O)O)c1ccccc1; target = NMDA receptor, rat; assay = binding; test system = cortical synaptosomes; setting = together with: [3H]-CGP 39653; Ki = > 100 µM
SMILES = O=C(O)c1c(Cl)c(Cl)c(Cl)c(Cl)c1-c1c2cc(I)c(=O)c(I)c-2oc2c(I)c(O)c(I)cc12; target = Dual specificity protein phosphatase 5 (Homo sapiens, UniProt Q16690); assay = enzyme activity, noncompetitive inhibitor; setting = 15 min, incandescent light; Ki = 0.54 ± 0.03 µM
SMILES = N=C(N)NCCCCCCCCCCNC(=N)NCCCc1c[nH]cn1; target = HRH1; assay = ligand displacement, radioligand; setting = cell membranes; Ki = 0.813 µM
SMILES = CCCN(CC[C@]1(O)C[C@@H](NS(=O)(=O)c2ccc(F)cc2)C1)[C@H]1CCc2nc(N)sc2C1 (relative stereo); target = Drd3; assay = ligand displacement, radioligand; setting = cell membranes; Ki = 0.0019 µM

Repeated from above:
SMILES = CCCCCCN1C(=O)C(O)=C(C(=O)c2ccccc2)C1c1ccc(O)c(OC)c1 (stereo not shown); target = FPR1; assay = ligand displacement in cells; Ki = 3 µM
SMILES = N=C(NCCCCCCCCCCCCN)NCCCc1cnc(N)s1; target = HRH1; assay = ligand displacement, radioligand; setting = cell membranes; Ki = 0.302 µM
SMILES = CCCN(CCC1(O)CC(NC(=O)c2ccc(Cl)cc2)C1)[C@H]1CCc2nc(N)sc2C1 (stereo in doubt); target = dopamine D1-like receptor, rat; assay = radioligand binding; test system = rat striatal membranes; setting = together with: [3H]SCH23390; Ki = 15.1 ± 0.78 µM
